Published values collected from several papers.
Target: Cyclin-dependent kinase-like 5 (CDKL5, Homo sapiens, UniProt O76039)

| SMILES | test | setting | scale | measurement | result |
| --- | --- | --- | --- | --- | --- |
| CN1CCN(Cc2ccc(-c3ccc(CO[C@H]4CCC[C@@H]4NC(=O)c4cc(-c5cnn(C)c5)cnc4N)cc3)cc2)CC1 | enzyme activity, inhibitor | 0.1 µM |  | inhibition | 9% |
| Cc1cnc2nc1Nc1cccc(c1)COC/C=C/COCc1cc(ccc1OCCN1CCOCC1)N2 | binding | 0.1 µM |  | remaining binding | 91% |
| COc1c(Cl)cccc1Nc1c(-c2ccncc2C#C[C@@]2(C)CCCN2C(=O)/C=C/CN(C)C)[nH]c2c1C(=O)NCC2 | binding, competition with immobilised ligand | 3 µM |  | remaining binding | 84% |
| C=CC(=O)N1CCCC(n2c(=O)c3ncccc3n(Cc3ccc(Oc4ccccc4)cc3)c2=O)C1 (stereo not drawn) | cell-free assay, competition with immobilised ligand | 1 µM |  | remaining binding | 61% |
| COc1cc(Nc2nc(C)cc(-c3cnn4nc(OC)ccc34)n2)cc(C(F)(F)F)c1 | inhibitor | 1 µM | reference: control | remaining activity | 82% |
| CNC(=O)C1CCN(c2cc(C)c(F)cc2NC(=O)c2ccc(-c3cc(O)ccc3C)c(C)c2)CC1 | binding, competition with immobilised ligand | 1 µM |  | remaining binding | 70% |
| COc1cc(Nc2nccc(-c3cnn4nc(OC)ccc34)n2)cc(C(F)(F)F)c1 | binding, competition with immobilised ligand | 1 µM |  | remaining binding | 100% |
| CCn1cc(C(=O)O)c(=O)c2c(N)c(F)c(NC3CCCCC3)cc21 | kinase activity | 0.1 µM, together with: ATP at Km |  | inhibition | 28.7% |
| Nc1ncc2c(n1)-c1c([nH]c3ccc(C4=CCOCC4)cc13)CCC2 | binding, competition with immobilised ligand | 1 µM |  | remaining binding | 85% |
| Cc1ccc(-c2c(/C=C(\C#N)C(=O)NC(C)C)n(CCCO)c3ncnc(N)c23)cc1 | cell-free assay, competition with immobilised ligand | 1 µM |  | remaining binding | 100% |
| CCN1CCN(Cc2ccc(C(=O)Nc3ccc(C)c(NCc4cnc5[nH]ccc5c4OC)c3)cc2C(F)(F)F)CC1 | binding, competition with immobilised ligand | 1 µM |  | remaining binding | 58% |
| C=CC(=O)N1CCc2ccc(-n3c(=O)ccc4cnc5ccc(-c6cnn(C)c6)cc5c43)cc21 | KINOMEscan | 1 µM | reference: DMSO control | remaining binding | 100% |
| CC(C)=CC1OC(C)(C)C2C=C3C(=O)C(Cl)=CC(O)C3C3C(O)C4OC4C(=O)C132 (stereo not drawn) | cell-free assay, competition with immobilised ligand | 10 µM |  | remaining binding | 68% |
| C=CC(=O)N1Cc2nc(-c3cc(-c4cc(Cl)cnc4Cl)c(F)cc3F)n(-c3ccncn3)c2C1 | cell-free assay | 1 µM |  | inhibition | 3.2% |
| CNC1C[S+]2CC[S+]3CC[S+](C1)[Ru-4]321([N]=C=S)[n]2c3ccc(OC)cc3c3c4c(c5cc(F)c[n+]1c5c32)C(=O)NC4=O (stereo not drawn) | KinomeScan | 0.1 µM | reference: untreated | remaining binding | 98% |

Excerpt of the above:
| SMILES | test | setting | scale | measurement | result |
| --- | --- | --- | --- | --- | --- |
| COc1cc(Nc2nc(C)cc(-c3cnn4nc(OC)ccc34)n2)cc(C(F)(F)F)c1 | inhibitor | 1 µM | reference: control | remaining activity | 82% |
